Measured values gathered from unrelated publications.
Every numbered part comes from another study and shows a few of its results, in no order. Values joined by “and” are separate records of one study, mostly repeats; a detail may differ.

Block 1
Cell line: A-375
Concentration: 100 µM
Time: 18 h
Endpoint: viability
O=C1c2c(O)cccc2Cc2cccc(O)c21: 97%
CN(C/C=C/C#CC(C)(C)C)Cc1cccc2ccccc12: 39.4%
NC(=O)N/N=C/c1ccc([N+](=O)[O-])o1: 96%
NC(=O)OCC(COC(N)=O)c1ccccc1: 101%

Block 2
Cell line: mouse MPNST tumor cells
Technique: high-content immunofluorescence imaging
Item: nuclear SOX9
Concentration: 10 µM
Time: 12 h
Notes: mean of 2 replicates
Reference: DMSO control
Direction: higher = more nuclear SOX9
Endpoint: nuclear SOX9 intensity
C#CCN(C)CC1=Cc2ccccc2Oc2ccccc21: 96.2 % of DMSO
COc1ccc(C2CC(c3c(O)cc(C)oc3=O)=NCCS2)c(OC)c1 (stereo not drawn): 227 % of DMSO
C[C@H](CCC(=O)O)[C@H]1CC[C@H]2[C@@H]3[C@H](O)C[C@@H]4C[C@H](O)CC[C@]4(C)[C@H]3CC[C@]12C: 103 % of DMSO
O=C(NCCCCCCNC(=O)ON=C1CCCCC1)ON=C1CCCCC1: 93.2 % of DMSO
CC(=O)c1ccc2c(c1)N(CCCN(C)C)c1ccccc1S2: 180 % of DMSO
COc1cccc(OC)c1-c1ccc(C[C@H](NC(=O)c2c(Cl)cccc2Cl)C(=O)O)cc1: 83 % of DMSO
Cc1[nH]c(/C=C2\C(=O)Nc3ccccc32)c(C)c1CCC(=O)O: 97.1 % of DMSO

Block 3
Target: Alpha-2B adrenergic receptor (ADRA2B, Homo sapiens, UniProt P18089)
Chain of UniProt P18089 (whole entry, looked up): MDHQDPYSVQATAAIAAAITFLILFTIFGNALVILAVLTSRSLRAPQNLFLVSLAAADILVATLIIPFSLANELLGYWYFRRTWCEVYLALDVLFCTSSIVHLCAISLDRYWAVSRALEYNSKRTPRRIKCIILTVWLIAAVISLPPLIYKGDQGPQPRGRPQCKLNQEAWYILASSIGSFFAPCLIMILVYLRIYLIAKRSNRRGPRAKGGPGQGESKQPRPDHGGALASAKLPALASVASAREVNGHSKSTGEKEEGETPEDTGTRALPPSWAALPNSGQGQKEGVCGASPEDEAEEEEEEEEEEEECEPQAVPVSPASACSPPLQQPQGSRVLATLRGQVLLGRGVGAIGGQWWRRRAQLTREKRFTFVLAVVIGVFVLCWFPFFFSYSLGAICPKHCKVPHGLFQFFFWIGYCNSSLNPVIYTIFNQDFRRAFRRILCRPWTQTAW
Observed: ligand displacement
Concentration: 10 µM
Endpoint: inhibition
CC1=C(C#N)C(c2ccc3[nH]nc(C)c3c2)C(C#N)=C(C)N1: 8.04%
CO[C@H]1CC[C@H](CNc2ccc(S(=O)(=O)NC(=O)c3ccc(N4CCN(CC5=C(c6ccc(Cl)cc6)CC(C)(C)CC5)CC4)cc3Oc3cnc4[nH]ccc4c3)cc2[N+](=O)[O-])CC1: 33%
COc1cc(C(=O)O)ncc1C#Cc1ccccc1NS(=O)(=O)c1cccc2c(N(C)C)ccnc12: 8.34%
c1ccc(C2CCN(c3cnc4c(N5CCOCC5)nccn34)CC2)cc1: 31.4%
C[C@H](c1ccnc(Nc2nc3ccc(-c4cc(N(C)C)ncn4)cc3[nH]2)c1)N1CCN(C(=O)CC(F)(F)F)CC1: 24.7%
CNC(=O)Nc1ccc2c(c1)CC[C@]21OC(=O)N(CC(=O)N(Cc2ccc(F)cc2)[C@@H](C)C(F)(F)F)C1=O: 26.5%
Nc1nc(NCc2ccccc2)nc(-c2cccc(CO)c2)n1: 21.8%

Block 4
Target: Ephrin type-B receptor 1 (EPHB1, Homo sapiens, UniProt P54762)
Observed: enzyme activity
Mode: inhibitor
Concentration: 0.5 µM
Reference: control
Endpoint: remaining activity
Construct (P54762 1-984): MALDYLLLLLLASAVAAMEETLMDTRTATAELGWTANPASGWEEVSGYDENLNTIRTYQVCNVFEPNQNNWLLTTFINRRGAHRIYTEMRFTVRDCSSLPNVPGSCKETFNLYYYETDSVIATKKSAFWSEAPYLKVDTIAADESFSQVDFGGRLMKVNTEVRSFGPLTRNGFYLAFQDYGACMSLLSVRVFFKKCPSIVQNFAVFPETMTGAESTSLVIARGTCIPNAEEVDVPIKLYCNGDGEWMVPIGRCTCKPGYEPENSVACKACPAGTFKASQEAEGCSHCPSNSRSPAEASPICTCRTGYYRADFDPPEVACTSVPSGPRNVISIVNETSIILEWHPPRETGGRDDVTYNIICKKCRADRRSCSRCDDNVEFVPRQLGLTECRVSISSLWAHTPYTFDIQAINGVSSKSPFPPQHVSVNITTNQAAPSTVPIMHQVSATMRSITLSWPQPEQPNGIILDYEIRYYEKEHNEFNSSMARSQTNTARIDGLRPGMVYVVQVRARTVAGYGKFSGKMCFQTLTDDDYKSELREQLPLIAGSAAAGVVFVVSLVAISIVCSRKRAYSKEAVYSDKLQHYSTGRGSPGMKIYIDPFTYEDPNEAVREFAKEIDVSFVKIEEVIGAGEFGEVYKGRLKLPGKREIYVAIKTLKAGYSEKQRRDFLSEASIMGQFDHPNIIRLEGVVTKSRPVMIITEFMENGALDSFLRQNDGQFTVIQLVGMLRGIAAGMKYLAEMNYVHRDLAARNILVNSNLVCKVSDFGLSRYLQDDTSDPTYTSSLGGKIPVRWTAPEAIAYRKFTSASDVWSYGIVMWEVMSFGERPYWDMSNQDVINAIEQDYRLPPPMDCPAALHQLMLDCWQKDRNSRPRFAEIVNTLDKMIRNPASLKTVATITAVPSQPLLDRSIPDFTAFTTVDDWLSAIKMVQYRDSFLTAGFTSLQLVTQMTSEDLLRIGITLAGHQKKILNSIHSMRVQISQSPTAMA
O=c1cc(-c2cccc3c2Sc2ccccc2S3)oc(N2CCOCC2)c1: 110%
c1ccc(-c2[nH]ncc2-c2ccnc3ccccc23)nc1: 98.7%
CCOc1nc(NC(=O)Cc2cc(OC)ccc2OC)cc(N)c1C#N: 94.4%
Cc1nc2cc3nc(-c4cccs4)cnc3cc2n1C: 107%
Nc1cccc(-c2cc3c(Oc4cccc(O)c4)ncnc3[nH]2)c1: 40%
O=C1c2ccccc2-c2n[nH]c3cccc1c23: 88.8%
C[C@@H]1CCN(C(=O)CC#N)C[C@@H]1N(C)c1ncnc2[nH]ccc12: 106%
CCN(CC)CCNC(=O)c1c(C)[nH]c(/C=C2\C(=O)Nc3ccc(F)cc32)c1C: 53.6%
CCN(CC)C(=O)c1ccc(Nc2nc(OCC3CCCCC3)c3[nH]cnc3n2)cc1: 75.4%
CN(C)C[C@H]1CCn2c(c(C3=C(c4cn(C)c5ccccc45)C(=O)NC3=O)c3ccccc32)C1: 106%
N#Cc1c(NC(=O)c2cccc3ccccc23)sc2c1CCCC2: 95.9%
COc1cc2c(cc1OC)-c1[nH]nc(Nc3cccc(F)c3)c1C2: 100%
CN([C@@H](Cc1ccc(OS(=O)(=O)c2cccc3cnccc23)cc1)C(=O)N1CCN(c2ccccc2)CC1)S(=O)(=O)c1cccc2cnccc12: 94.2%
COc1cc2ncnc(Nc3ccc(O)c(Br)c3)c2cc1OC: 81.4%
COc1cc2ncnc(Nc3cccc(Cl)c3)c2cc1OC: 82.8%
Cc1cc2ncc(-c3ccccc3)nc2cc1C: 91.1%
CCN(CC)CCNC(=O)c1c(C)[nH]c(/C=C2\C(=O)Nc3ccc(Cl)cc32)c1C: 60.8%
Cc1cn(-c2cc(NC(=O)c3ccc(C)c(Nc4nccc(-c5cccnc5)n4)c3)cc(C(F)(F)F)c2)cn1: 10.6%
N#C/C(=C\c1ccc(O)c(O)c1)C(=O)NCc1ccccc1: 87.4%
O=C1C(Cl)=C(N2C(=O)CCC2=O)C(=O)c2ccccc21: 97.2%
c1ccc(-c2cnc(Nc3ccc(OCCN4CCCC4)cc3)s2)cc1: 95.4%

Mixed results
CC(=O)N[C@@H](Cc1c[nH]c2ccccc12)C(=O)N[C@@H](CCC(=O)C=[N+]=[N-])C(=O)OC(C)C  taurine level (UPLC-MS/MS; EL4 tumor, C57BL/6 CES1-/- mice, tumor; subcutaneous, 0.3 mg/kg DON equivalent daily, 5 days; higher = more metabolite): 1.34e+08 a.u. and 1.63e+08 a.u. and 1.18e+08 a.u. and 1.49e+08 a.u. and 1.52e+08 a.u.
CC[C@@H](C)c1nc2cc(Nc3ccnc4ccc(S(=O)(=O)C(C)C)cc34)ccc2s1.Cl  caspase-3 activity (L929; caspase activity, Ac-DEVD-pNA absorbance; 50 µM, 0 h; higher = more activity): 0.007 a.u. and 0.018 a.u. and 0.015 a.u. and 0.019 a.u.
CC(C)C[C@@H]1NC(=O)[C@@H](N(C)C(=O)[C@H](CC2CCC2)NC(=O)[C@@H]2C[C@@H](F)CN2C(=O)C2(C(F)(F)F)CC(F)(F)C2)CCCCNC(=O)C2(CC2)NC(=O)[C@H](Cc2cc(Cl)ccc2Cl)N(C)C1=O  G0-G1 phase cells (human CD34+ HSPC; EdU flow cytometry; 10000 nM, 24 h): 45.1% and 42%

Repeated from above (block 1):
NC(=O)N/N=C/c1ccc([N+](=O)[O-])o1: 96%
CN(C/C=C/C#CC(C)(C)C)Cc1cccc2ccccc12: 39.4%
O=C1c2c(O)cccc2Cc2cccc(O)c21: 97%
NC(=O)OCC(COC(N)=O)c1ccccc1: 101%
